Results pooled from the literature.
Each line is one published result; not all experiments were run side by side. Numbers after ± are the reported error.

| SMILES | assay | system | setting | how to read | quantity | value |
| --- | --- | --- | --- | --- | --- | --- |
| COc1cc(NC(C)=O)c2c(c1O)-c1c(OC)c(OC)cc3c1C(C2)N(C)CC3 (stereo not shown) | – | rat, processed plasma samples | 50 µg/mL, 24 h, room temperature, post-preparative storage | – | remaining compound | 91.9 ± 1.1% |
| Cc1cc2c(cc1C1(c3ncc(C(=O)O)cn3)CC1)C(C)(C)CCC2(C)C | – | Sprague-Dawley rat, male | oral, 100 mg/kg, 12 h, sesame oil vehicle | – | blood cholesterol | 50 ± 4.5 mg/dL |
| Nc1nccc(-c2cn(C3CC3)c3ccccc23)n1 | radiolabelled metabolite profiling | human male, plasma | oral, 110 mg, 4 h | – | plasma concentration | 46.4 ng/g |
| O=C(c1ccccc1)N1C(c2ccc(OCC3CCN(CCCF)C3)cc2)c2ccc(O)cc2CC12CC2 (stereo not shown) | plasma protein binding | human plasma | – | – | fu | 0.0154 |
| Oc1ccc2ccccc2c1/N=N/c1ccc(/N=N/c2ccccc2)cc1 | – | rat whole blood QC samples | 16.0 µg/L, 4 h, room temperature, short-term stability | – | measured concentration | 16.2 µg/L |
| O=C(NCCCN(CCCCN(CCCNC(=O)c1cccc(=O)n1[O-])C(=O)c1cccc(=O)n1[O-])C(=O)c1cccc(=O)n1[O-])c1cccc(=O)n1[O-].[89Zr+4] | radio-TLC | PBS | 1 h, pH 7.4, 37 °C, with: Fe^3+ 10-fold excess | – | intact complex | 97 ± 4.2% |
| O=c1nc(NO)ccn1[C@@H]1O[C@H](CO)[C@@H](O)[C@H]1O | RT-PCR, refers to: CYP2B1 | normal rat, liver | oral, 80 mg/kg twice daily, 5 days | relative to: untreated rats | mRNA level | 0.2 fold |
| CCC/C(=C\C1=C(C(F)(F)F)C(=O)c2ccccc2C1=O)C(=O)N(CC)CC | – | mouse plasma | 1 µM, 37 °C | – | t1/2 | 2 min |
| Clc1cccc(-c2nnc(/N=C/C=C/c3ccccc3)nc2/N=C/C=C/c2ccccc2)c1Cl | rotarod test | white albino mice, both sexes | intraperitoneal, 30 mg/kg | – | time on rotating rod | 80.9 ± 32.1 s |
| N=C(N)NCCC[C@@H]1NC(=O)[C@H](Cc2c[nH]c3ccccc23)NC(=O)[C@@H](CC2CCCCC2)NC(=O)[C@@H]2CCCN2C(=O)[C@@H](NC(=O)CCc2ccccc2)CCCNC1=O | – | C57BL/6J mouse, plasma | subcutaneous, 1 mg/kg, single dose | – | AUC | 3350 ng·h/mL |
| CCCC[C@@H]1NC(=O)[C@@H](NC(=O)[C@H](CCC(=O)O)NC(=O)CNC(=O)CN2CCN(CC(=O)O)CCN(CC(=O)O)CCN(CC(=O)O)CC2)CCCCNC(=O)C[C@@H](C(N)=O)NC(=O)[C@H](C(C)C)NC(=O)[C@@H]2CCCN2C(=O)[C@H](CCCNC(=N)N)NC(=O)CNC(=O)[C@H](Cc2c[nH]c3ccccc23)NC(=O)[C@H](CCCNC(=N)N)NC(=O)[C@@H](Cc2ccccc2)NC(=O)[C@H](Cc2c[nH]cn2)NC(=O)[C@H](CCC(=O)O)NC1=O [gallium-67 labelled] | – | C57 mice, B16/F1 flank melanoma, intestine | intravenous, 0.037 MBq/mouse, 24 h | – | intestine uptake | 0.2 ± 0.01 %ID |
| Cc1cc2c(c(=O)o1)C=C1CCC(C(C)CNCc3ccc(O)cc3)CC1O2 (stereo not shown) | – | mouse, plasma | oral, dose not given | – | AUC | 11300 ng·h/mL |
| CC[C@@H](C)[C@@H]1NC(=O)[C@@H](Cc2ccccc2)NC(=O)[C@@H]2CCCN2C(=O)[C@H]([C@H](C)CC)NC(=O)[C@@H](Cc2ccccc2)NC(=O)[C@@H]2CCCN2C1=O | – | mouse liver microsomes | – | – | CLint | 8.83 mL/min/g tissue |
| CC[N+]1(Cc2ccc3ccc(O)c(C#N)c3n2)CCCC1CNC(=O)c1cc(S(N)(=O)=O)ccc1OC (stereo not shown) | photolysis at 365 nm | KMOPS buffer | pH 7.2 | – | release yield | 65% |
| CC[C@H](C)[C@H](NC(=O)[C@@H](NC(=O)[C@H](Cc1ccccc1)NC(=O)[C@@H](N)CC(=O)O)C(C)C)C(=O)N[C@@H](Cc1ccccc1)C(=O)N[C@@H](CC(C)C)C(=O)N[C@@H](CC(=O)O)C(=O)N[C@H](C(=O)N[C@@H](CCCCN)C(=O)N[C@@H](Cc1c[nH]cn1)C(=O)N[C@@H](Cc1ccccc1)C(=O)N[C@@H](CO)C(=O)N1CCC[C@H]1C(=O)N[C@@H](CCC(=O)O)C(=O)N[C@@H](CC(=O)O)C(=O)N[C@@H](CC(C)C)C(=O)N[C@H](C(=O)N[C@H](C(=O)N[C@@H](CCCCN)C(=O)O)C(C)C)[C@@H](C)O)C(C)C | circular dichroism | 5 mM phosphate | 455 µM, pH 7 | – | CD minimum wavelength | ~218 nm |
| Cn1c(=O)oc2ccc(-c3ccc(CC(C#N)NC(=O)C4CNCCCO4)c(F)c3)cc21 (stereo not shown) | – | human | oral, 40 mg once daily, TEAE, multiple ascending dose | – | fibrinogen decreased incidence | 11.1% |

Repeated from above:
| SMILES | assay | system | setting | how to read | quantity | value |
| --- | --- | --- | --- | --- | --- | --- |
| O=C(c1ccccc1)N1C(c2ccc(OCC3CCN(CCCF)C3)cc2)c2ccc(O)cc2CC12CC2 (stereo not shown) | plasma protein binding | human plasma | – | – | fu | 0.0154 |
| Oc1ccc2ccccc2c1/N=N/c1ccc(/N=N/c2ccccc2)cc1 | – | rat whole blood QC samples | 16.0 µg/L, 4 h, room temperature, short-term stability | – | measured concentration | 16.2 µg/L |
